Published values pooled from the literature.
Lines come from different studies, so protocols differ. ± gives the spread as reported.

For `C[C@H]1C[C@H]2CSC(N)=N[C@@]2(c2nc(NC(=O)c3ccc(OC(F)F)cn3)cs2)CO1`, “percent change from baseline” read -49.1% (measured: total Aβ; healthy adults, plasma; 40 mg single dose, 24 h post-dose; relative to: placebo).
Under “log2 fold change”, `N#Cc1ccc2c(-c3ccncc3)c(-c3ccc(F)cc3)nn2c1` is recorded as 0.186 (kinase binding, competitor, MIB/MS competition, measured: IRE1; Candida albicans cell lysate; 10 µM; relative to: DMSO).
`Cn1cc(-c2ccc(-c3cncc(Cl)c3N3CCC4(CCNC4=O)CC3)cc2)cn1`: “log2 fold change” 2.46 (COLO 205; gene expression, microarray, measured: ICAM1 mRNA; concentration not given, 2 h; relative to: untreated cells).
For `NC(=O)c1cnc2[nH]ccc2c1N[C@@H]1[C@@H]2CC3C[C@H]1C[C@@](O)(C3)C2`, “change from baseline” read -0.17% (flow cytometry, measured: CD8+ effector memory T cells; Japanese healthy subjects, peripheral blood; oral, 10 mg twice daily, day 4).
The sarcomere length of `O=C(O)CNC(=O)Cc1ccccc1` is reported as 1.67 µm (ventricular cardiomyocytes, C57BL/6 mouse; dose not given, 0.268 s).
The latency change of `C[C@H](Oc1ccc(Br)cc1-c1ccon1)C(=O)O` is reported as -1.46% (muscle velocity recovery cycles; human, tibialis anterior muscle; 400 mg twice daily, multiple doses, frequency ramp, first response at 30 Hz; relative to: placebo).
`Cc1n[nH]c2ccc(-c3cc(OC[C@@H](N)Cc4ccccc4)cnc3-c3ccoc3)cc12`: “log2 fold change” -0.0168 (kinase binding, competitor, MIB/MS competition, measured: CDC7; Candida albicans cell lysate; 100 nM; relative to: DMSO).
For `CC(C)NCC(O)c1ccc(O)c(O)c1` (stereo not drawn), the sarcomere length was 1.5 µm (ventricular cardiomyocytes, C57BL/6 mouse; dose not given, 0.18 s).
`NS(=O)(=O)c1cccc(-c2ccc(C3CCCCC3)cc2)c1` gave a hepatic clearance of 19 mL/min/kg (liver microsome stability; dog liver microsomes; 1 µM).
For `CSCCNc1nc(SCCC(F)(F)F)nc2c1ncn2[C@@H]1O[C@H](COP(=O)(O)OP(=O)(O)C(Cl)(Cl)P(=O)(O)O)[C@@H](O)[C@H]1O`, “inhibition of platelet aggregation” read 18.7 ± 20.2% (light transmittance aggregometry; human patients, platelet-rich plasma; dose not given, 3 h, added: ADP 20 µM).
For `CN(CCC#N)C(=O)c1ccc([C@H]2[C@@H](F)[C@@H](F)C[C@@H](F)[C@H]2F)cc1`, the hepatic clearance was 53 mL/min/kg (hepatocyte stability; cryopreserved mouse hepatocytes; 1 µM).
Under “EEG theta power, O1 Pz”, `OC(CCN1CCCCC1)(c1ccccc1)C1CC2C=CC1C2` (stereo not drawn) is recorded as 10 µV² (resting-state EEG; healthy elderly humans; oral, 2 mg, eyes closed, LS mean).
